Measured values pooled from the literature.
Compare with care: the assays were run in different laboratories. “And” joins repeats or separate records; there may be more than shown.
Target: Tyrosine-protein kinase Fer (FER, Homo sapiens, UniProt P16591)

SMILES	test	conditions	scale	quantity	result
C=CC(=O)Nc1cccc(-c2cnc3[nH]cc(C(=O)NC(C)(C)C)c3n2)c1	enzyme activity, inhibitor	0.1 µM	–	inhibition	13%
CNC(=O)C[C@H](Cc1ccc(C#N)cc1)NC(=O)c1cc(-c2ccc(CN[C@H](C)c3ccc(C)cc3)o2)ccc1Cl	enzyme activity, inhibitor	1 µM	–	activity vs control	98%
Nc1ncc(-c2cc(-c3cnn(CC(F)(F)F)c3)ncc2F)nc1C(=O)NC1CNCC(F)C1 (stereo not shown)	enzyme activity	1 µM	baseline: DMSO control	remaining activity	93.1%
Cc1cnc2nc1Nc1cccc(c1)COC/C=C/COCc1cc(ccc1OCCN1CCOCC1)N2	binding	0.1 µM	–	remaining binding	99%
Cc1ccc(-c2c(/C=C(\C#N)C(=O)NC(C)C)n(CCCO)c3ncnc(N)c23)cc1	cell-free assay, competition with immobilised ligand	1 µM	–	remaining binding	91%
O=C(Cc1ccc(OCc2ccccc2)cc1)NC1(C(=O)O)CCN(C(=O)c2ccc(-c3cccc(Cl)c3)cc2)CC1	enzyme activity, inhibitor	10 µM	–	activity vs control	104%
NC(=O)C[C@H]1CCc2sc3ncnc(O[C@H]4CC[C@H](N5CCOCC5)CC4)c3c21	enzyme activity, inhibitor	10 µM	–	inhibition	8%
CNC1C[S+]2CC[S+]3CC[S+](C1)[Ru-4]321([N]=C=S)[n]2c3ccc(OC)cc3c3c4c(c5cc(F)c[n+]1c5c32)C(=O)NC4=O (stereo not shown)	KinomeScan	0.1 µM	baseline: untreated	remaining binding	100%
Cc1cccc(O[C@H]2CCC[C@@H](C(C)CNCc3ccncc3)C2)c1 (relative stereo)	cell-free assay, inhibitor	10 µM	–	inhibition	-6%
COc1cc(Nc2nc(C)cc(-c3cnn4nc(OC)ccc34)n2)cc(C(F)(F)F)c1	inhibitor	1 µM	baseline: control	remaining activity	93%
CC(C)=CC1OC(C)(C)C2C=C3C(=O)C(Cl)=CC(O)C3C3C(O)C4OC4C(=O)C132 (stereo not shown)	cell-free assay, competition with immobilised ligand	10 µM	–	remaining binding	97%
COCC12C(=O)NC3C4(C(OC)CC1O)C1CC5(O)C(OC)C(O)C(OC(C)=O)(C1C5OC(=O)c1ccccc1)C3(O)C(OC)C24 (stereo not shown)	kinase activity, inhibitor, ProQinase kinase profiling	25 µM	baseline: control	remaining activity	98% and 97%
CCn1cc(C(=O)O)c(=O)c2c(N)c(F)c(NC3CCCCC3)cc21	kinase activity	0.1 µM, with: ATP at Km	–	inhibition	-11.9%
C=CC(=O)N1CCCC(n2c(=O)c3ncccc3n(Cc3ccc(Oc4ccccc4)cc3)c2=O)C1 (stereo not shown)	cell-free assay, competition with immobilised ligand	1 µM	–	remaining binding	97%
COc1c(OCCCN2CCOCC2)ccc2c1N=C(NC(=O)c1cnc(N)nc1)N1CCN=C21	kinase activity, inhibitor	1 µM	baseline: untreated control	remaining activity	97%
C=CC(=O)N1Cc2nc(-c3cc(-c4cc(Cl)cnc4Cl)c(F)cc3F)n(-c3ccncn3)c2C1	cell-free assay, inhibitor	1 µM	–	inhibition	7.7%
